Measurements collected from several papers.
Parts stem from different laboratories: compare values within a part only. Substitutions count along the parent as printed.

Series 1 — target: CCND2, cyclin fold, Cln2 fusion (human); method: yeast growth competition, sequencing; medium: yeast; notes: weak parent motif; baseline: not given; reading: higher = stronger binding
Starting sequence: SCAPER docking peptide (human); SNARRSLNFGGST; partner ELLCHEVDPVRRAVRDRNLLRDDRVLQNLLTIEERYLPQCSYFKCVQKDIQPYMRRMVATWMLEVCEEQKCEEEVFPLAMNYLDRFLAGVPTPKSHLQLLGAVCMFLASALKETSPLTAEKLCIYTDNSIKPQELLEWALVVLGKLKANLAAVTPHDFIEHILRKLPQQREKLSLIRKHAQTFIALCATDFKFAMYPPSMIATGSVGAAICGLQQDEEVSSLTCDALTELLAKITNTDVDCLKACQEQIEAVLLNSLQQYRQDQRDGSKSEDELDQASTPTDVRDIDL
Substitution	normalised enrichment score
SNARRSLNFGMST [G11M]	0.304
SNARTSLNFGGST [R5T]	0.0779
STARRSLNFGGST [N2T]	0.565
SNARVSLNFGGST [R5V]	0.426
SNAHRSLNFGGST [R4H]	0.0201
SIARRSLNFGGST [N2I]	0.209
SNARRSLNRGGST [F9R]	0.223
SNARNSLNFGGST [R5N]	-0.082
SNARRSLNFGGPT [S12P]	0.864
SNARRSLNCGGST [F9C]	-0.255
SNARRSTNFGGST [L7T]	0.293
SNARRSLRFGGST [N8R]	-0.062
SNARRSLNFGHST [G11H]	0.0939
SNARRILNFGGST [S6I]	0.672
SNAPRSLNFGGST [R4P]	-0.255
SNARRSKNFGGST [L7K]	0.242
SNARRSLNFGFST [G11F]	0.206
SNARRSLNFGLST [G11L]	0.259
SNALRSLNFGGST [R4L]	-0.305
SNHRRSLNFGGST [A3H]	0.286
SNARRSLNSGGST [F9S]	0.213
SNARRSLNFAGST [G10A]	0.596
SNASRSLNFGGST [R4S]	-0.107
SNACRSLNFGGST [R4C]	0.882
SNARMSLNFGGST [R5M]	0.63

Series 2 — target: UBE2R2 UBC core domain (UniProt Q712K3); method: yeast two-hybrid; medium: yeast; notes: mostly zero background; baseline: not given; reading: higher = stronger interaction
Chain of UniProt Q712K3 (whole entry, looked up): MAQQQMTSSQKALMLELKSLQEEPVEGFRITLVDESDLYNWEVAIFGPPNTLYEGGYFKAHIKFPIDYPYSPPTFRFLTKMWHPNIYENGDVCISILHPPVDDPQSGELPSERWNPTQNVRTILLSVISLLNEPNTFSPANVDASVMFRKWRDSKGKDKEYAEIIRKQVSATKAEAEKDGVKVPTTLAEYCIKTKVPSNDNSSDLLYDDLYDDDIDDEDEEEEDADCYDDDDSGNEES
B1: TRIM37 RING domain (UniProt O94972); chain SVESIAEVFRCFICMEKLRDARLCPHCSKLCCFSCIRRWLTEQRAQCPHCRAPLQLRELVN
B2: TRIM60 RING domain (UniProt Q495X7); chain ALVNLQEESSCPICLEYLKDPVTINCGHNFCRSCLSVSWKDLDDTFPCPVCRFCFPYKSFRR
B3: RNF183 RING domain (UniProt Q96D59); chain EQQGRELEAECPVCWNPFNNTFHTPKMLDCCHSFCVECLAHLSLVTPARRRLLCPLCRQPTVLASGQP
B4: MEX3B RING domain (UniProt Q6ZN04); chain SGLRRKGSRDCSVCFESEVIAALVPCGHNLFCMECANRICEKSEPECPVCHTAVTQAIRIF
B5: TRIM54 RING domain (UniProt Q9BYV2); chain SMDNLEKQLICPICLEMFSKPVVILPCQHNLCRKCANDVFQASNPLWQSRGSTTVSSGGRFRCPSCRHEVVLDRHGV
B6: MKRN2 RING domain (UniProt Q9H000); chain FAFQASQDKVCSICMEVILEKASASERRFGILSNCNHTYCLSCIRQWRCAKQFENPIIKSCPECRVISEFVIPSV
B7: TRIM22 RING domain (UniProt Q8IYM9); chain VKVDIEKEVTCPICLELLTEPLSLDCGHSFCQACITAKIKESVIISRGESSCPVCQTRFQPGNLRP
B8: TRIM26 RING domain (UniProt Q12899); chain PLRSLEEEVTCSICLDYLRDPVTIDCGHVFCRSCTTDVRPISGSRPVCPLCKKPFKKENIRP
B9: TRIM31 RING domain (UniProt Q9BZY9); chain FVNKLQEEVICPICLDILQKPVTIDCGHNFCLKCITQIGETSCGFFKCPLCKTSVRKNAIRF
Molecule	lacZ reporter activity
B1 (TRIM37 RING domain)	0
QVQSRTKIEECVVCSDKKAAVLFQPCGHMCACENCANLMKKCVQCRAVVERRVPFI (MIB1 RING domain (UniProt Q86YT6))	0
B2 (TRIM60 RING domain)	0
YPEEVDDDLICHICLQALLDPLDTPCGHTYCTLCLTNFLVEKDFCPMDRKPLVLQHCKK (LNX1 RING domain (UniProt Q8TBB1))	0
B3 (RNF183 RING domain)	0
B4 (MEX3B RING domain)	0
B5 (TRIM54 RING domain)	0
KPDKMEETLTCIICQDLLHDCVSLQPCMHTFCAACYSGWMERSSLCPTCRCPVERICKNH (CHFR RING domain (UniProt Q96EP1))	0
PEELAVNNDDCAICWDSMQAARKLPCGHLFHNSCLRSWLEQDTSCPTCRMSLNIADNNR (AMFR RING domain (UniProt Q9UKV5))	0
B6 (MKRN2 RING domain)	0
B7 (TRIM22 RING domain)	0
B8 (TRIM26 RING domain)	0
B9 (TRIM31 RING domain)	0
YCEMGSTFQLCKICAENDKDVKIEPCGHLMCTSCLTAWQESDGQGCPFCRCEIKGTEPII (CBLB RING domain (UniProt Q13191))	0

Series 3 — method: RNA Bind-n-Seq; form: RNA; medium: in vitro; tested at: 365 nM; baseline: no-protein control; reading: higher = stronger binding
Target: RNA binding protein fox-1 homolog 2, RRM domain, GST-SBP tag (RBFOX2, Homo sapiens, UniProt O43251-10, residues 100-194)
Notes: natural RNA segment, single round, ends assumed
All sequences stand within: GGGAGUUCUACAGUCCGACGAUC … UGGAAUUCUCGGGUGCCAA
Construct (chain): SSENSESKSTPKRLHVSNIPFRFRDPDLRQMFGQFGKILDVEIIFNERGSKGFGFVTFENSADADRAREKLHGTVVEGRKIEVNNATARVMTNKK
Oligonucleotide	RBNS enrichment (R)
GCGUAGCAUUGUAAGCGCUGAAGUAUAUAUUUUCUUCAGUAAGUCUCUUUAAAAUUUCAAGUGUUAUCAUGAUUGUUUAUAUGAAUGUAGAACACCUCGGUAUUUCUUUU	0.63
CAGGUGUAGUAGUGAACUUGAACAUUUGAAUGGGAAGGAAGCACUUCGCACAAUGGCAUUUGAACAAGGUGGCAAUCGGUUGGAGUAACAAACUCCCCCUUGCUGCUGCA	3.45
AUUUCUAUUUUUCACACCAUCACAGGACAAACCAAAGUCAACUGAAAUAAAUGACAGUUUCCAUCCCAUUCACAGAUCUGUUUGUUCGCUGAGGGAUUGUGAUCUGACUC	0.506
CGCCCGUGCCUCCAGGGGCCAAGAGGAUGAUGUCGUGGCCUCCAUUCUCGUUUCUAUGCAGCCCCAUAGUCCAAGGACACCCAGUCCACAUCUACCAUAUAGCAAGUUUA	0.603
AAACAAUCCCCAUCAGGUAGUUGUCCAACCCCCAGCUGGGUUCAACCCUCUCAUUACCCACCUGACCUAGCUGUCCCCUUACUGUGGGCUGGGGGACUUGGGGGCCAUUU	0.372
GACUCCCUGCUUGCCGCACACACCUCGGACAGUGAGCAACCCAGGCUCUGCCGUGUUCAGACGUCGGCUACUCCGUGGCUCCACCUGACCUCCGAAUGCUAUUUGCUCCC	1.29
GAGGAAGACCUGAUGGGGUCUCCUAUUCCAGGGAAUAAGCCAAAUUAACACUAAAAACGGAUCAAAGCUCCCACGCCAGUCCACUAGGGCCCCAGUAGUUGACAGCCUUG	0.742
CUAUCUAUAUAAUGUAGUAUGAUGUAAUGUGGUCUUUUUUUUAGAUUUUGUGCAGUUAAUACUUAACAUUGAUUUAUUUUUUAAUCAUUUAAAUAUUAAUCAACUUUCCU	0.701
AAUAUUGAAAAGAUAAGACAAAUUAUAAAUAAGUUCUAAAACAUAAAUUUAAUUCAUCUCUGCAUAGUGAUUUUUGAAUUUGAUUCAAAGGGAAAUUAUUGCAGAAGAAU	1.2
GAUUAAGAGAGAGUAAUAUUAAUUGUGCAUGUGCAGUUGUAUUUCUCAUUAACUGACAGUAUGCCCAUUUGUUUUUAUGGCUUUCUUAUCUAAACUGCACUGAUGAACUA	4.31
AAAAGGAAGACGAAGAGUUUGGAGCACCUCUCCCUAGCAUCCUCUCAGCUGGAGAGGCAGCAUUGGAUCCCCAUGCCGCACACGGGGAUGGGAUGGGAGCAGAAGCCCAU	0.288
UUUGGAAGCUCAGUUCUUGAGUUGUCAGAGGGCCUCAUUGCCGUCCUCCUCUGAGAGCAGUGAUGCAGGCCAGGAGACAUCAUUUGAGAAUGCUGAUGCUUUUGUAAGGC	0.262

Series 4 — method: RNA Bind-n-Seq; form: RNA; medium: in vitro; tested at: 100 nM; baseline: input RNA pool; reading: higher = stronger binding
Target: RING finger protein unkempt homolog, zinc fingers 1-6, SBP tag (UNK, Homo sapiens, UniProt Q9C0B0, residues 30-357)
Chain of UniProt Q9C0B0 (30-357, looked up): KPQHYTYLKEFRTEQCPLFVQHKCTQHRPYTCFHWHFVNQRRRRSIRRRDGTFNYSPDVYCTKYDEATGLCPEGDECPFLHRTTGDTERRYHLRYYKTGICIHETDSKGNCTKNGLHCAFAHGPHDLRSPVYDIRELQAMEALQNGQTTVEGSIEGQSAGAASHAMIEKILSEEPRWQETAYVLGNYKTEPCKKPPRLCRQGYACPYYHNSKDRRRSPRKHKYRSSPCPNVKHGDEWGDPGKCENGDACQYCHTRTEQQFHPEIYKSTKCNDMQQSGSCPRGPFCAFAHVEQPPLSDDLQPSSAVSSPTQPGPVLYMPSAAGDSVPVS
Notes: RNA with constant flanks, vertebrate orthologous sites, ends assumed
All sequences stand within: GGGAGUUCUACAGUCCGACGAUC … CAACAGAGGAUUGAGCAUCA
Oligonucleotide	bound/input enrichment
CUCUACGGGCCUCGCAGAGUUGAAAUAAUGGAAGAGGAAAGUGAAUAGUAAUCUUCAUUUUAGUAUUUAUGCUUAGGUGUGAAAUAAAUGUUAUUCGUUGAUCAUUUCUAUAAUCCAGAG	0.568 ratio
AGCAGGCCAGGGAUUGAGGCCCACCUUCCCACAUGUACCAAGUAGGUAUGGAAACAACAGGACAGGACAGCCAAGACCUUGAAGGACUUUAACUUAUUUUUAUGAGGAAUGUCGACUCCU	0.573 ratio
AGUAGUUUCAAGCUUGUUUGCACAGUUCUUUUUUUCCAUUGGAAAUGGAAUUCAUUGCCUUAGGUCUUUUAAAAUAGUGUAUUAUCGUUGGGGCUGGCUCUGUGCUUGAAAACCAGUUUA	2.35 ratio
ACAUGCCACUGUCACCAAAACAAACAACUACCACUUUCCAAAUUUCAUUCAGAGCCAUUUUAGUGUUUUCCUAUUCCCUACCCCUCCCACUACUUUCAAUGAUGAAAUACCCUAAGUUCU	5.38 ratio
AAUUUUCUCACUUUAGGUACCAUUGCCCAAUGCCCAAGAUCUUUUAUGUUCAGCUGACUGUAGGAAAUAAUGAAUUUUUUGGGGAAGGAAAGACUCGACAAGCCGCUAGACACAACGCCG	0.964 ratio
UAUAAGAACUCUUGCAGCCUUAGAUGUUAUACAAAAUAAGUAUCUGAUUGUAAGAGGUGUUAGCACAGGUUUUUUUCUUUUCUUUUCUUUUUUUUUUUUAACACUUGUUUUGGGUACAAA	1.46 ratio
UUUUGUCUGCCUCAUAAAAUUUACACAAUAGACCAUUCGUCAUCCUUACUGUCCCACAAAUAGGUUUUGUUUUUUUUUUUUUAAUUUUAUUUUUUGUUUUUGUUUUGUUUACAAUUACGG	10.2 ratio
CAACUCAAUGGUUGAGGGCUCUGAACUCAAAAAGGUUCGUUCUAACUCCAGAAUUUACCAUCGGUAUUUUCUGCUGGACGCCGACAUGCAAAGCCUGAGGUGGGAGCCAUCUAAGAAGGA	0.0975 ratio
AAUGACAGCUAUGCAGCAUCAGUUUUCAAUAUUGUUGAAAUUGUUCUUGGAUUUGUACUUGUCACUUUGUUCACUUCCCUAAAAACAAAAUUUAAAUCUGGAUUUAAGGGAGUUAAAUCU	0.197 ratio
UUCAUAAUCACGCUAAUCGUAAGCUGGAGACGUGUAACAUUGUGUAGCCUUUUGUACAAAUAGACAGAUAGGAAUGGUCCCAUUAGUUUCCUUUUUAAUAUGCUUAAAGUAAGCAGGUGG	4.38 ratio
UUAUGGCCGCUUCUCCCCUGCCUCAGUGAGGUAAAGUCUCCCUUGGCAUUUGGUUGGUACCAGAGCCAGCCAUACCUAAGACAUGUUUCCACAUUUCUCUCACACUCGUAGUCAUCUUCG	0.327 ratio

Series 5 — target: FOSL2, bZIP domain (human); method: DHFR protein complementation; medium: yeast; baseline: wild-type JUN-FOS pair; reading: higher = stronger binding
Notes: single substitutions, most at no-binding floor
Starting sequence: JUN, bZIP domain (human); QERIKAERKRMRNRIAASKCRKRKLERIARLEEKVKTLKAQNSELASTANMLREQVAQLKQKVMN; partner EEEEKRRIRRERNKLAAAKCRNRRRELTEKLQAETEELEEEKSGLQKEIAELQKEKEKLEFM
Substitution	binding fitness [natural log]
R30V	0.249
L45I	-0.801
T37P	-1.14
A46K	0.181
E44F	-0.118
Q55E	0.0413
L38K	-1
T37K	0.0563
K34C	-0.0259
K39D	-0.817
K34V	-0.0358
L45E	-1.29
A46G	-0.153
V35S	-0.362
A46P	-1.45
K34Q	0.0221
Q41H	-0.0833
E54R	-0.00952

For quick reference, copied from above (series 4):
Oligonucleotide	bound/input enrichment
AGCAGGCCAGGGAUUGAGGCCCACCUUCCCACAUGUACCAAGUAGGUAUGGAAACAACAGGACAGGACAGCCAAGACCUUGAAGGACUUUAACUUAUUUUUAUGAGGAAUGUCGACUCCU	0.573 ratio
AGUAGUUUCAAGCUUGUUUGCACAGUUCUUUUUUUCCAUUGGAAAUGGAAUUCAUUGCCUUAGGUCUUUUAAAAUAGUGUAUUAUCGUUGGGGCUGGCUCUGUGCUUGAAAACCAGUUUA	2.35 ratio
ACAUGCCACUGUCACCAAAACAAACAACUACCACUUUCCAAAUUUCAUUCAGAGCCAUUUUAGUGUUUUCCUAUUCCCUACCCCUCCCACUACUUUCAAUGAUGAAAUACCCUAAGUUCU	5.38 ratio
AAUUUUCUCACUUUAGGUACCAUUGCCCAAUGCCCAAGAUCUUUUAUGUUCAGCUGACUGUAGGAAAUAAUGAAUUUUUUGGGGAAGGAAAGACUCGACAAGCCGCUAGACACAACGCCG	0.964 ratio
UAUAAGAACUCUUGCAGCCUUAGAUGUUAUACAAAAUAAGUAUCUGAUUGUAAGAGGUGUUAGCACAGGUUUUUUUCUUUUCUUUUCUUUUUUUUUUUUAACACUUGUUUUGGGUACAAA	1.46 ratio
